Experimental data pooled from the literature.
Protocols differ between the studies behind these lines. ± gives the spread as reported.
Method: steady-state kinetics
B1: aspC A106G/A17N/A218G/A278L/A281T/A8Q/D18E/F210I/F212I/F350Y/G15S/G249S/I187A/I279A/I29V/I33V/I341V/I5L/I68L/I71L/L46M/M321L/M380L/N285S/N30D/N64T/S129T/S135A/S273G/S351L/T100S/V125I/V136I/V375I/Y244C (Escherichia coli, UniProt P00509); chain MFENLTAQPADPILSLNELFRADERPGKVDLGVGVYKDETGKTPVMTSVKKAEQYLLENETTKTYLGLDGLPEFGRCTQELLFGKGSALINDKRARTAQSPGGTGGLRVAADFLAKNTSVKRVWISNPTWPNHKAIFNSAGLEVREYAYYDAENHTLDFDALINSLNEAQAGDVVLFHGCCHNPTGADPTLEQWQTLAQLSVEKGWLPLIDIAYQGFGRGLEEDAEGLRAFAAMHKELIVASSCSKNFSLYNERVGACTLVAADSETVDRAFGQMKALARTNYSSPPAHGASVVATILSNDALRAIWEQELTDMRQRIQRLRQLFVNTLQEKGANRDFSFVIKQNGMFSYLGLTKEQVLRLREEFGVYAVASGRINVAGLTPDNMAPLCEAIVAVL
B2: enzyme (Mycosarcoma maydis, UniProt A0A0U2UYC4); chain MAPALNANPTTKRDELSAPSASHKLGMSSMASRAAGGGLKLTGLPDLSDSAGTLSDIFGTPQMREIWSDQNRVACYLEIEAALAIVQADLGIIPKNAAHEIVEHCRVQEIDWALYKQKTELIGYPVLGIVQQLVANCKDGLGEYCHWGATTQDITDTATVMQIRQSLTLVKQRLDSIVSSLEHLAEQHRNVPMAARSNLKQAVPITFGFKMARFLATFRRHQQRLVELEKRVYTLEFGGAAGNLSSLGDQGIATHDALAKMLDLAPAEIAWHTEHDRFAEVGTFLGLLTGTLAKLATDIKLMSQTEVGEVGEPFISNRGSSSTMPQKNNPISCVYIHACAANVRQGAAALLDAMQSDHERGTGPWEIIWVQLPLMMNWTSAALNNADFVLRGLQVFPDAMQHNLDLSKGLIVSEAVMMGLGNTLGRQYAHDAVYECCRTAFVQDRPLLDVLLENHEIASKLDRTELEKLCDPANYLGQCSQWIDRVLSRPSSA
B3: enzyme (Bacteroides fragilis, UniProt Q5LAA3); chain MAMLEKIQETAAFLKGKMHTSPETAIILGTGLGSLANEITEKYEIKYEDIPNFPVSTVEGHSGKLIFGKLGNKEIMAMQGRFHYYEGYSMKEVTFPVRVMRELGIKTLFVSNASGGTNPEFEIGDLMIITDHINYFPEHPLRGKNIPYGPRFPDMSEAYDKELIRKADAIAAEKGIKVQHGIYIGTQGPTFETPAEYKLFHILGADAVGMSTVPEVIVANHCGIKVFGISVVTDLGVEGKIVEVSHEEVQKAADAAQPKMTTIMRELINRA
B4: enzyme (Schizosaccharomyces pombe, UniProt P78804); chain MSTPYEPEFQQAYKEIVGSIESSKLFEVHPELKRVLPIISIPERVLEFRVTWEDDKGNCRVNTGYRVQFNSALGPYKGGLRFHPSVNLSILKFLGFEQIFKNALTGLPMGGGKGGSDFDPKGKSDNEIRRFSQAFMRQLFRYIGPQTDVPAGDIGVTGFVVMHMFGEYKRLRNEYSGVVTGKHMLTGGSNIRPEATGYGVVYYVKHMIEHRTKGAETLKGKRVAISGSGNVAQYAALKCIQEGAIVKSISDSKGVLIAKTAEGLVPEEIHEIMALKEKRASIADSASLCKKHHYIAGARPWTNVGEIDIALPCATQNEVSGEEAAALIKQGCRYVAEGSNMGSSAEAVEVFEKSRASGEGCWLAPGKAANAGGVAVSGLEMAQNAQFSTWTHAEVDAKLAGIMQNIFEQSTDVASKYCDSGSNNIPSLVDGANIAGFLKVATAMQAVGDWW
B5: enzyme K234A (Methanosarcina mazei, UniProt Q8PVB1); chain MSEQRSVPLREHLLALKPCRHGGLIQETSETYGIPENEILDFSANFNPLGSPFDYPENGLNFEDIIKKSCGKLLEYPDNRYVEFREAAARFVGLGVTPQSIVPGNGSTEIVRLVVESVIEKGDKVLLPWPTFGEYEMQCRITGAEPVCPSQEEVNTLPDEVLEEAKILFICNPNNPTGKLRTREELKVLAERCREHKTLLYVDEAFIELSDPSQSVADLPAENNYVFVMRSLTADFAIPGIRMGFGIAPPAMADILNTARLSWNLGAIANNTGIALLNIEGGIDSPYLKKAREMILKEGETLKAKIDRIRGFEAGEVNVNFILVDVSKFMLNSSELTARLAARGVLVRDCVSFHGLGKNYIRVAVRTEKENDRLIAAIGDVITEWGREQAKNELQHVIEKASEEGIGGRKTCEYYPCHFEGQNCTFCFCPFYPCENEKTGGKWIQSSRGGRVWSCVDCHLVHKKEIAQKILDCLMHEGDTDELVKVAWKEVMEPIL
B6: enzyme (Sargassum horneri, UniProt A0A097IUG6); chain SPMAVASPSGFQKAMKTTLSSLGIDKATGITKPTTIYRNLPYPEVFKHEEQNKEGEVTKNGTFCVSTGQFTGRSPKDKYFVKQAPSDGKLDWGKINKGVASEVYKNIYDKAVKHYNTNVDKMYVFDGYCGTSPKSRKNVRIITELAWQHHFAKNMFIRPETEEEVANFVPDFTIINACKIVNEDYKELGLNSEVAVVFNVEESKAVITGTWYGGEMKKGIFSMMNYWLPLDGVMSMHCSANKGKDGDTALFFGLSGTGKTTLSADPARYLIGDDEHGWDDDGIFNFEGGCYAKTVNLSRENEPEIYDAIKRDALLENVIIKKNGEPDYADVSRTENTRVSYPIYHIDNYEPSGMGDHPKSIVFLTCDAFGVLPPVSRLSPGQAMYHFLSGYTAKVAGTERGVTEPTPNFSAGFGAAFLTLHPTVYADLLQEKLDKHGTQCFLINTGWTGGGYGVGKRMSIKATRACVDAVLDGSINKTKFTKEPVFGFEVPQELPNVPSKVLNPREAWSDKASYDATRTKLGDMFKNNFTKFVKPGMTDYTAYGPK
B7: enzyme W53Y (Thermoplasma volcanium, UniProt Q978S7); chain MAFHGLVKYSDITVEGYPKIQYHGFIGNNRTAMLVAMNGYIDYGCLPNFNSNAVFSSILDKNKGGYFAIFPSDTTDVYVDQYYKEMTNVLVTEFVKNGKIILRLTDFMPDSEYGKISFPEVHRFVESFSEPIDITIDFKPTFNYGQDKPIIEKDQHGFIFTTDKESIGISSEFPLRKNSDRIFGNVKMEPRSSSWIIALYGIHHLFRTTDYKSYLRLQETTDYWRKWASSSSYAGAYHSMVMRSALALKVLFYEPTGLMVAAPTASLPEAIGGERNWDYRFTWIRDTAYVIEALSSIGYKYEATEFLYDMMDMITRDNRIRTIYSIDDSNDLEERIIDYEGYRGSRPVRIGNKAVDQLQIDQYGSIVRAIHSMAKAGGIVNSYLWDFVEQVMAKIEYLWKYPDSSIWEFRTEPKQYVYSKVMSWAAFDSAISMAKDLGLSAPIKQWKSIQDEIKKEVLEKGFDTDTNSFVQYYGSKNIDAALLRLPILGFIPANDEKFLGTLSRIEKELMVDGYLFKRYREDDGLKGDEGSFLMLTFWYIEDLILMKRLKKAREVLESVLEKANHLGLYSEEIDEKSGDFLGNFPQALSHLGVIRVAPKLEEALLKRTSKINS
B8: enzyme (UniProt P0DY30); chain ESPWIGVHFMVYTDKMLDQLAEQLPALSKRGVTHLILEINYHFAYKSHPELAPTNGITVVGAKKFADTARAHHIEIIPQINCLGHQSWKQNNAALLKHYPQFDETPGAYPDNKDIYCRSWCPQHPEVNRVVFALIDELIDAFEAKAFHVGMDEVFLIASEHCERCRGGDPAALFAKAVNDLHGHIVGKRGVQMLMWGDRLLDAEQTGYGKWEASGNGTAPAIDRIPKDIVLCDWHYEKRDRYPSLAVFLDKGFRVWPAGWKKPEAAEAFAAAARGCQNPRLLGYLCTTWGAVEIPNLADWPALLRPIEKIIAP
B9: enzyme K56A (Nitrosopumilus maritimus, UniProt A9A5X4); chain MDSQKFDSIIFDCDGVLVDITQSYDKTIDKTCRYVLKEFAKIDSITIDHKIIDGFASSGGFNDEVDLVYAAILSLYTANKLNKKPSEFIYDVISNTDKTGIRSVQSYLESIYDVSEFLSKLGSLGDRHNNPVYSIFDQFFFGPELYGKLFDKQSKFSEEGMISNDKVILSVSLLETLQKEFGKKIAVVTGRGIESIRYSLKDMMDYFDTKNSAFLEDEPRELAKPNPATLIRAIQSMESKNCLYVGDSMEDYMMAKDAAQAGHSTTFCAIVGTSTNPEDRRKLFADSGVEMILESINDIPKVLNLV
B10: SCO6712 (Streptomyces coelicolor, UniProt Q9XAL8); chain AKGITARTAPAGGEVRHLKMYAEKLADGQMGYGFEKGKASVPGPLIEVNEGDTLHIEFTNTMDVRASLHVHGLDYEISSDGTAMNKSDVEPGGTRTYTWRTHKPGRRDDGTWRPGSAGYWHYHDHVVGTEHGTGGIRNGLYGPVIVRRKGDVLPDATHTIVFNDMTINNRKPHTGPDFEATVGDRVEIVMITHGEYYHTFHMHGHRWADNRTGILTGPDDPSRVIDNKITGPADSFGFQIIAGEGVGAGAWMYHCHVQSHSDMGMVGLFLVKKPDGTIPGYEPHEHGGATAKSGESGEPTGGAAAHEHEH

Substance	substrate	pH	temperature	notes	with	kcat/Km
nudC (Escherichia coli, UniProt P32664)	Nc1ncnc2c1ncn2[C@@H]1O[C@H](COP(=O)(O)OP(=O)(O)OP(=O)(O)OP(=O)(O)OP(=O)(O)OC[C@H]2O[C@@H](n3cnc4c(N)ncnc43)[C@H](O)[C@@H]2O)[C@@H](O)[C@H]1O				Mg2+	960 M⁻¹ s⁻¹
enzyme K46A (Homo sapiens, UniProt Q08623)	O=c1[nH]cc([C@@H]2O[C@H](COP(=O)(O)O)[C@@H](O)[C@H]2O)c(=O)[nH]1	pH 7	25 °C			11200 M⁻¹ s⁻¹
enzyme (Lactiplantibacillus plantarum, UniProt Q06115)	C[C@H](CCC(=O)N[C@@H](Cc1ccc(O)cc1)C(=O)O)[C@H]1CC[C@H]2[C@@H]3[C@H](O)C[C@@H]4C[C@H](O)CC[C@]4(C)[C@H]3C[C@H](O)[C@]12C	pH 6.2	37 °C			11000 ± 1170 M⁻¹ s⁻¹
B1	N[C@@H](Cc1ccc(O)cc1)C(=O)O	pH 7.5	25 °C		PMP 20 µM	210 M⁻¹ s⁻¹
B2 (enzyme)	O=C(O)/C=C(\CC(=O)O)C(=O)O	pH 5.5	37 °C			89100 M⁻¹ s⁻¹
B3 (enzyme)	OC[C@H]1O[C@@H](n2cnc3c(O)ncnc32)[C@H](O)[C@@H]1O					42000 M⁻¹ s⁻¹
HNL E79H/G176S/H103V/K236M/N104A/T11G (Hevea brasiliensis)	CC(=O)Oc1ccc([N+](=O)[O-])cc1	pH 7.2	22 °C			867 M⁻¹ s⁻¹
B4 (enzyme)	NC(=O)C1=CN([C@@H]2O[C@H](COP(=O)(O)OP(=O)(O)OC[C@H]3O[C@@H](n4cnc5c(N)ncnc54)[C@H](OP(=O)(O)O)[C@@H]3O)[C@@H](O)[C@H]2O)C=CC1	pH 7	30 °C	apparent		1e+06 ± 100000 M⁻¹ s⁻¹
enzyme (Tannerella forsythia, UniProt G8UMQ6)	C[C@@H]1O[C@@H](Oc2ccc([N+](=O)[O-])cc2Cl)[C@@H](O)[C@H](O)[C@@H]1O	pH 8.4	40 °C			200000 M⁻¹ s⁻¹
B5 (enzyme K234A)	Nc1ncnc2c1ncn2[C@@H]1O[C@H](COP(=O)(O)OP(=O)(O)OP(=O)(O)O)[C@@H](O)[C@H]1O	pH 8.5	25 °C	apparent, anoxic	L-Thr 10 mM	110 ± 30 M⁻¹ s⁻¹
B6 (enzyme)	Nc1ncnc2c1ncn2[C@@H]1O[C@H](COP(=O)(O)OP(=O)(O)O)[C@@H](O)[C@H]1O	pH 6.5	25 °C		16 mM PEP	280000 M⁻¹ s⁻¹
B7 (enzyme W53Y)	OC[C@H]1O[C@H](O[C@H]2O[C@H](CO)[C@@H](O)[C@H](O)[C@H]2O)[C@H](O)[C@@H](O)[C@@H]1O	pH 3.7	30 °C			90 M⁻¹ s⁻¹
B8 (enzyme)	CC(=O)N[C@H]1[C@H](Oc2ccc([N+](=O)[O-])cc2)O[C@H](CO)[C@@H](O[C@@H]2O[C@H](CO)[C@H](O)[C@H](O)[C@H]2O)[C@@H]1O	pH 6	50 °C			4990 M⁻¹ s⁻¹
B9 (enzyme K56A)	N[C@H](COP(=O)(O)O)Cc1c[nH]cn1	pH 7.8	25 °C			2.8 ± 0.6 M⁻¹ s⁻¹
enzyme (Staphylococcus aureus, UniProt A0A0H2XHR6)	CC(C)C(=O)O	pH 7.5	37 °C			49000 M⁻¹ s⁻¹
B10 (SCO6712)	CCn1c(=NN=c2sc3cc(S(=O)(=O)O)ccc3n2CC)sc2cc(S(=O)(=O)O)ccc21	pH 7	37 °C	NaCl 150 mM	O2 cosubstrate	430 ± 600 M⁻¹ s⁻¹
PYCR2 (Homo sapiens, UniProt Q96C36)	NC(=O)C1=CN([C@@H]2O[C@H](COP(=O)(O)OP(=O)(O)OC[C@H]3O[C@@H](n4cnc5c(N)ncnc54)[C@H](OP(=O)(O)O)[C@@H]3O)[C@@H](O)[C@H]2O)C=CC1	pH 7.5	37 °C	apparent, cofactor varied	DL-P5C 5000 µM	111000 ± 9000 M⁻¹ s⁻¹
acsA D449E (Pseudomonas chlororaphis)	C#CCCC(=O)O	pH 7				183 ± 33.3 M⁻¹ s⁻¹
enzyme (Lactococcus lactis, UniProt Q9R7D7)	Nc1ncnc2c1ncn2[C@@H]1O[C@H](COP(=O)(O)OP(=O)(O)OP(=O)(O)O)[C@@H](O)[C@H]1O	pH 8	24 °C			207000 ± 9000 M⁻¹ s⁻¹

For quick reference, copied from above:
Substance	substrate	pH	temperature	notes	with	kcat/Km
B4 (enzyme)	NC(=O)C1=CN([C@@H]2O[C@H](COP(=O)(O)OP(=O)(O)OC[C@H]3O[C@@H](n4cnc5c(N)ncnc54)[C@H](OP(=O)(O)O)[C@@H]3O)[C@@H](O)[C@H]2O)C=CC1	pH 7	30 °C	apparent		1e+06 ± 100000 M⁻¹ s⁻¹
enzyme (Tannerella forsythia, UniProt G8UMQ6)	C[C@@H]1O[C@@H](Oc2ccc([N+](=O)[O-])cc2Cl)[C@@H](O)[C@H](O)[C@@H]1O	pH 8.4	40 °C			200000 M⁻¹ s⁻¹
